# Measured values of several laboratories.
# Lines come from different studies, so protocols differ. ± marks the error that the study gave.
Molecule,test,test system,setting,half-life [h]
O=C(C[18F])NCCCCCC(=O)Nc1ccccc1,,"rhesus macaque, blood plasma","intravenous, 6.07 mCi, slow phase",~0.0917
Dendroaspis natriuretic peptide,cGMP elevation,human kidney membranes,37 °C,~2.65
Cc1ncc2n1-c1ccc(Cl)cc1C(c1ccccc1F)=NC2,,"healthy volunteers, plasma","oral, 8 mg, CYP3A probe, before Echinacea, geometric mean",5.6
NCC(=O)N[C@@H](CO)C(=O)N[C@@H](CO)C(=O)N[C@@H](CCC(N)=O)C(=O)N[C@@H](CO)C(=O)N[C@@H](CO)C(=O)NCC(=O)N[C@@H](Cc1c[nH]c2ccccc12)C(=O)NCC(=O)N[C@@H](CO)C(=O)N[C@@H](CO)C(=O)N[C@@H](CCC(N)=O)C(=O)N[C@@H](CO)C(=O)N[C@@H](CO)C(=O)NCC(N)=O,RP-HPLC and LC-MS,human serum,"50% serum, 37 °C",< 0.5
CCCCCOc1ccc(-c2cc(-c3ccc(C(=O)N[C@H]4C[C@@H](O)[C@@H](O)NC(=O)[C@@H]5[C@@H](O)[C@@H](C)CN5C(=O)[C@H]([C@H](O)CC(N)=O)NC(=O)[C@H]([C@H](O)[C@@H](O)c5ccc(O)c(OS(=O)(=O)O)c5)NC(=O)[C@@H]5C[C@@H](O)CN5C(=O)[C@H]([C@@H](C)O)NC4=O)cc3)no2)cc1,,"infants below 1000 g, plasma","intravenous infusion, 10 mg/kg/day, day 4, 1 h infusion",10.6
N=C(N)NCCC[C@@H](NC(=O)[C@@H](N)Cc1ccccc1)C(=O)N[C@@H](Cc1ccccc1)C(=O)N[C@@H](CCCCN)C(N)=O,,"early Huntington's disease patients, plasma","subcutaneous, 5 mg, day 7",3.13
CC[C@H](C)[C@H](NC(=O)[C@H](CCCNC(=N)N)NC(=O)[C@H](CC(C)C)NC(=O)[C@@H](N)Cc1ccccc1)C(=O)N[C@@H](CCCNC(=N)N)C(=O)N1CCC[C@H]1C(=O)N[C@@H](CCCCN)C(=O)O,,rat plasma,together with: captopril 10 µM,0.6
C#CCn1c(C)c(C(=O)C(=O)NC(C)(C)C#C)c(C)c1C(=O)Nc1ccc(F)c(F)c1,,human liver microsomes,"1 µM, together with: ritonavir 3 µM",0.317
CC(C)C[C@H](NC(=O)[C@H](CC(C)C)NC(=O)[C@H](CCCCN)NC(=O)[C@H](C)NC(=O)[C@H](CC(C)C)NC(=O)[C@H](CCCCN)NC(=O)[C@H](CCCCN)NC(=O)[C@H](CC(C)C)NC(=O)[C@H](C)NC(=O)[C@H](CCCCN)NC(=O)[C@H](CCCCN)NC(=O)[C@H](Cc1ccc(O)cc1)NC(=O)[C@@H](N)CCCCN)C(N)=O,RP-UPLC,human serum 25%,"200 µM, 37 °C",~2
C[N+]1=C(C=CC2=C(OC(=O)CCCc3ccc(N(CCCl)CCCl)cc3)C(=CC=C3N(CCCCCC(=O)O)c4ccccc4C3(C)C)CCC2)C(C)(C)c2ccccc21,ester linker cleavage,phosphate buffer,"0.6 µM, pH 7.5, 37 °C, 2.5% DMSO",~60
Cc1ncc2n1-c1ccc(Cl)cc1C(c1ccccc1F)=NC2,,"healthy male, plasma","oral, 7.5 mg, alone, arithmetic mean, day 1",4.5
O=C(NC1CCCCC1)Oc1ccc(F)c(-c2ccccc2)c1,,10 mM borate buffer,"pH 9.0, 37 °C, chemical stability",0.617 ± 0.05
CC(C)C[C@H](NC(=O)[C@H](CCC(=O)O)NC(=O)[C@H](CCC(=O)O)NC(=O)[C@H](CC(=O)O)NC(=O)[C@H](CCC(=O)O)NC(=O)[C@H](CCC(=O)O)NC(=O)[C@H](CCC(=O)O)NC(=O)[C@@H](N)CC(=O)O)C(=O)O,,mouse brain homogenate,"1 µM, room temperature",> 2
O=S(=O)([O-])[O-].[O]=[V+2],measured: total vanadium,"human, serum","oral, 25 mg V/day as VOSO4",79.2
CC[C@H](C)[C@H](NC(=O)CN)C(=O)NCC(=O)N[C@@H](C)C(=O)N[C@H](C(=O)N[C@@H](CC(C)C)C(=O)N[C@@H](CCCCN)C(=O)N[C@H](C(=O)N[C@@H](CC(C)C)C(=O)N[C@H](C(=O)N[C@H](C(=O)NCC(=O)N[C@@H](CC(C)C)C(=O)N1CCC[C@H]1C(=O)N[C@@H](C)C(=O)N[C@@H](CC(C)C)C(=O)N[C@H](C(=O)N[C@@H](CO)C(=O)N[C@@H](Cc1c[nH]c2ccccc12)C(=O)N[C@H](C(=O)N[C@@H](CCCCN)C(=O)N[C@@H](CCCNC(=N)N)C(=O)N[C@@H](CCCCN)C(=O)N[C@@H](CCCNC(=N)N)C(=O)N[C@@H](CCC(N)=O)C(=O)N[C@@H](CCC(N)=O)C(N)=O)[C@@H](C)CC)[C@@H](C)CC)[C@@H](C)O)[C@@H](C)O)C(C)C)C(C)C,HPLC-MS,human serum,37 °C,8
CC[C@H](C)[C@H](N)C(=O)N[C@@H](CC(C)C)C(=O)N[C@@H](CCCNC(=N)N)C(=O)N[C@@H](Cc1c[nH]c2ccccc12)C(=O)N[C@@H](CO)C(=O)N[C@@H](CCCNC(=N)N)C(=O)N[C@@H](CCCCN)C(=O)N[C@@H](CC(C)C)C(=O)N1CCC[C@H]1C(=O)N[C@@H](CS)C(=O)N[C@H](C(=O)N[C@@H](CO)C(=O)O)C(C)C,12G5 antibody competition,human plasma,"20 µM, 37 °C, 100% plasma",~0.1
O=c1[nH]c(Cc2ccccn2)nc2c1cnn2C1CCOCC1,,"healthy men, extensive metabolizers, plasma","oral, 100 mg single dose, tablet, geometric mean",1.85
Nc1ccc(OC(=O)NC2CCCCC2)cc1-c1ccccc1,,rat plasma 80% in PBS,"1 µM, pH 7.4, 37 °C",13.1 ± 0.467
CC12C(=O)C(C)(C(c3ccccc3)=C1c1ccccc1)C1(Br)C(=O)N(CCNCCN)C(=O)C21.O=C(O)C(F)(F)F.O=C(O)C(F)(F)F (centres unmarked),"CO release, HPLC",TRIS-sucrose buffer,"pH 7.4, 37 °C",1.25
CC(C)(C)[C@H](NC(=O)C(F)(F)F)C(=O)N1C[C@H]2[C@@H]([C@H]1C(=O)N[C@H](C#N)C[C@@H]1CCNC1=O)C2(C)C,,mouse liver microsomes,microsomes 0.5 mg/mL,0.247
